# Experimental data of several laboratories.
# Protocols differ between the studies behind these lines. ± gives the spread as reported.
# B1: UGT1A9 (Homo sapiens, UniProt O60656); chain GKLLVVPMDGSHWFTMRSVVEKLILRGHEVVVVMPEVSWQLGRSLNCTVKTYSTSYTLEDLDREFKAFAHAQWKAQVRSIYSLLMGSYNDIFDLFFSNCRSLFKDKKLVEYLKESSFDAVFLDPFDNCGLIVAKYFSLPSVVFARGILCHYLEEGAQCPAPLSYVPRILLGFSDAMTFKERVRNHIMHLEEHLLCHRFFKNALEIASEILQTPVTEYDLYSHTSIWLLRTDFVLDYPKPVMPNMIFIGGINCHQGKPLPMEFEAYINASGEHGIVVFSLGSMVSEIPEKKAMAIADALGKIPQTVLWRYTGTRPSNLANNTILVKWLPQNDLLGHPMTRAFITHAGSHGVYESICNGVPMVMMPLFGDQMDNAKRMETKGAGVTLNVLEMTSEDLENALKAVINDKSYKENIMRLSSLHKDRPVEPLDLAVFWVEFVMRHKGAPHLRPAAHDLTWYQYHSLDVIGFLLAVVLTVAFITFKCCAYGYRKCLGKKGRVKKAHKSKTH
Substance,target or system,test,test system,conditions,how to read,endpoint,result
FMEIET,,"substrate, gel electrophoresis","peptide, mouse, PyMT tumour, PyMT tumour tissue extract","5 µM, 16 h, 37 °C, 2% extract, 1 mM ZnCl2",,peptide cleavage,< 5%
CC(C)/N=c1\cc2n(-c3ccc(Cl)cc3)c3ccccc3nc-2cc1Nc1ccc(Cl)cc1,,shake-flask,Captex 355,37 °C,,thermodynamic solubility,13.3 ± 0.38 mg/g
CC1=C(/C=C/C(C)=C/C=C/C(C)=C/C(=O)O)C(C)(C)CCC1,,refers to: developmental marker expression,hiPSC-derived embryoid bodies,teratogenicity 20 %,,threshold concentration,0.1 nM
O=S(=O)(O)Oc1c[nH]c2ccccc12,,,"human hemodialysis patients, plasma",pre-treatment,relative to: hemodialysis over normal subjects,total plasma concentration ratio,26
CC[C@H](C)[C@H](NC(=O)[C@H](Cc1ccccc1)NC(=O)[C@H](CC(=O)O)NC(=O)[C@H](CCCNC(=N)N)NC(=O)[C@H](C)NC(=O)[C@H](C)NC(=O)[C@H](CC(C)C)NC(=O)[C@H](CC(N)=O)NC(=O)[C@H](CC(=O)O)NC(=O)[C@H](CC(C)C)NC(=O)[C@@H](NC(=O)[C@@H](NC(=O)[C@H](CC(N)=O)NC(=O)[C@H](CCSC)NC(=O)[C@H](CCC(=O)O)NC(=O)[C@H](CC(=O)O)NC(=O)[C@H](CO)NC(=O)[C@H](Cc1ccccc1)NC(=O)[C@H](CO)NC(=O)CNC(=O)[C@H](CC(=O)O)NC(=O)CNC(=O)[C@@H](N)Cc1c[nH]cn1)[C@@H](C)O)[C@@H](C)CC)C(=O)N[C@@H](CC(N)=O)C(=O)N[C@@H](Cc1c[nH]c2ccccc12)C(=O)N[C@@H](CC(C)C)C(=O)N[C@H](C(=O)N[C@@H](CCC(N)=O)C(=O)N[C@H](C(=O)N[C@@H](CCCCN)C(=O)N[C@H](C(=O)N[C@H](C(=O)N[C@@H](CC(=O)O)C(=O)O)[C@@H](C)O)[C@@H](C)CC)[C@@H](C)O)[C@@H](C)CC,,,human,"subcutaneous thigh or arm, dose not given",relative to: abdominal injection,relative bioavailability reduction,7%
des-acyl ghrelin (human),,,"wild-type mice, pons and medulla","intravenous, dose not given, 10 min, vascular space corrected",,tissue/serum ratio,14.8 µL/g
CCCC[C@H](NC(C)=O)C(=O)N[C@H]1CCC(=O)NC[C@@H](C(=O)N[C@@H](Cc2c[nH]c3ccccc23)C(N)=O)NC(=O)[C@H](CCCNC(=N)N)NC(=O)[C@@H](Cc2ccccc2)NC(=O)[C@H](Cc2c[nH]cn2)NC1=O,,,"beagle dog, female, plasma","subcutaneous, 1.5 mg/kg daily, day 14",,AUC(0-last),258 ng·h/mL
C[C@H](Oc1ccc(-c2nc(-c3ccc4[nH]cnc4c3)no2)cc1C(F)(F)F)C(F)(F)F,,,"cynomolgus monkey, aneurysm model, plasma","0.1 mg/kg once daily, 2 h post-dose, 4 weeks dosing",,plasma concentration,17 ± 4.7 nM
COc1cnc(C(=O)Nc2ccc(F)c([C@]34CN(c5ncc(F)cn5)C[C@H]3CSC(N)=N4)c2)cn1,,,"PDAPP mice, brain","oral, 3.0 mg/kg, 3 h",,brain concentration,110 nM
CC[C@H](C)[C@@H]1NC(=O)[C@H](Cc2ccc(O)cc2)NC(=O)[C@@H](N)CSSC[C@@H](C(=O)N2CCC[C@H]2C(=O)N[C@@H](CC(C)C)C(=O)NCC(N)=O)NC(=O)[C@H](CC(N)=O)NC(=O)[C@H](CCC(N)=O)NC1=O,,"microdialysis, radioimmunoassay","C57BL/6J male mice, wild type, amygdala extracellular fluid","intranasal, 12 µg, 2 h after dosing, i=1,2,6,30",,Cmax,5.74 ± 1.38 pg/sample
CCCCCCCCCc1nc2cc(Cl)ccc2c(=O)n1N,,,"rat, male, Sprague-Dawley, lung","intratracheal, 0.067 mg/kg",,fraction in epithelial lining,> 98%
COC(=O)Nc1nc2ccc(Sc3ccccc3)cc2[nH]1,,shake-flask,polysorbate 80,37 °C,,thermodynamic solubility,1.9 ± 0.05 mg/g
NS(=O)(=O)OC[C@@H]1C[C@@H](n2ccc3c(N[C@H]4CCc5ccccc54)ncnc32)C[C@@H]1O,,,human,"intravenous, dose not given, added: itraconazole",,patients with grade ≥3 drug-related AEs,5%
CCCn1c(=O)n(C2CC2)c(=O)c2[nH]c(-c3ccc(N(CC)C(=O)c4cccnc4)nc3)nc21,,,KKA diabetic mice,"oral, 20 mg/kg four times at 12 h intervals, 2 day",,body weight,no effect
B1 (UGT1A9),O=C(c1ccc(OCCN2CCCCC2)cc1)c1c(-c2ccc(O)cc2)sc2cc(O)ccc12,steady-state kinetics,,"pH 7.4, 37 °C",,Vmax,3.93e-05 µmol/min/mg
COc1cc(OC)c(/C=C/S(=O)(=O)Cc2ccc(OC)c(NCC(=O)O)c2)c(OC)c1,,,"cancer patients, phase I, plasma","oral, 140 mg twice daily, day 1 cycle 1",,AUC(0-inf),3490 ± 5250 ng·h/mL
Oc1ccc(C(c2ccc(O)cc2)(C(F)(F)F)C(F)(F)F)cc1,,refers to: free compound,"Hsd:Sprague Dawley rat male, plasma","oral gavage, 110 mg/kg single dose",,alpha half-life,55.1 min
CNc1nc(Nc2ccc(-n3cnc(C)n3)c(OC)c2)nc2c1CC[C@H]2c1ccc(F)cc1,,,"human, plasma","oral, 900 mg, single dose, healthy volunteers",,AUC(0-inf),21400 ng·h/mL
COc1cc(/C=C/C(=O)CC(=O)/C=C/c2ccc(O)c(OC)c2)ccc1O,,I-125 label,"C57BL/6J mouse, hippocampus","intranasal vs intraperitoneal, 10 µg/mouse IN, 100 µg/mouse IP, 12 h",relative to: intranasal over intraperitoneal,brain uptake ratio,6.19
CC1=C2C[C@H]3[C@@H](CC[C@@H]4C[C@H](NS(C)(=O)=O)CC[C@@]43C)[C@@H]2CC[C@@]2(C1)O[C@@H]1C[C@H](C)CN[C@H]1[C@H]2C,,,"patients, plasma","oral, 130 mg single, day -7, cycle 1",,AUC(0-24),823 ng·h/mL

# A few entries again:
Substance,target or system,test,test system,conditions,how to read,endpoint,result
CNc1nc(Nc2ccc(-n3cnc(C)n3)c(OC)c2)nc2c1CC[C@H]2c1ccc(F)cc1,,,"human, plasma","oral, 900 mg, single dose, healthy volunteers",,AUC(0-inf),21400 ng·h/mL
COc1cc(/C=C/C(=O)CC(=O)/C=C/c2ccc(O)c(OC)c2)ccc1O,,I-125 label,"C57BL/6J mouse, hippocampus","intranasal vs intraperitoneal, 10 µg/mouse IN, 100 µg/mouse IP, 12 h",relative to: intranasal over intraperitoneal,brain uptake ratio,6.19
CC1=C2C[C@H]3[C@@H](CC[C@@H]4C[C@H](NS(C)(=O)=O)CC[C@@]43C)[C@@H]2CC[C@@]2(C1)O[C@@H]1C[C@H](C)CN[C@H]1[C@H]2C,,,"patients, plasma","oral, 130 mg single, day -7, cycle 1",,AUC(0-24),823 ng·h/mL
